Values quoted from earlier work, collected from citations in different studies.
Each line is one published result; not all experiments were run side by side.
Dose: dose not given

SMILES = Nc1ccn([C@@H]2O[C@H](CO)[C@@H](O)C2(F)F)c(=O)n1; host = pancreatic cancer patients; quantity = patients with dose delay; result = 12.5%
SMILES = CO[C@@H](C)Cn1c(=O)n(C)c2cnc3ccc(-c4cncc(C(C)(C)O)c4)cc3c21; refers to = nausea; host = cancer patients; notes = monotherapy; quantity = patients with related adverse event; result = 36.5%
SMILES = CC1(C)CCC2(CC1)N[C@@H](C(=O)N[C@@H]1CC[C@@H](C(N)=O)OC1)[C@H](c1ccnc(Cl)c1F)[C@]21C(=O)Nc2cc(Cl)ccc21; host = patients with solid tumours or lymphomas; notes = grade ≥3, first-in-human trials; quantity = patients with related thrombocytopenia; result = 19%
SMILES = CC(C)C[C@H](NC(=O)[C@H](Cc1ccccc1)NC(=O)c1cnccn1)B(O)O; host = newly diagnosed multiple myeloma patients; quantity = patients with peripheral neuropathy; result = ≤ 64%
SMILES = COc1ccc(CN2C3CC2CN(c2ccc(-c4cc(OCC(C)(C)O)cn5ncc(C#N)c45)cn2)C3)cn1; host = RET-positive NSCLC patients; quantity = patients with dose reduction; result = 41%
SMILES = CC(C)[C@@H](CS(=O)(=O)C(C)C)N1C(=O)[C@@](C)(CC(=O)O)C[C@H](c2cccc(Cl)c2)[C@H]1c1ccc(Cl)cc1; host = patients with solid tumours or lymphomas; notes = grade ≥3, first-in-human trials; quantity = patients with related neutropenia; result = 21%
SMILES = COc1cc2nccc(Oc3ccc(NC(=O)C4(C(=O)Nc5ccc(F)cc5)CC4)cc3)c2cc1OC; host = cancer patients, real-world; quantity = patients requiring dose reduction; result = ≤ 75%
SMILES = CCN1[C@@H](C(=O)NC23CCC(C(=O)O)(CC2)CC3)[C@H](c2cccc(Cl)c2F)[C@]2(C(=O)Nc3cc(Cl)ccc32)C12CCCCC2; host = patients with solid tumours or lymphomas; notes = grade ≥3, first-in-human trials; quantity = patients with related thrombocytopenia; result = 14%
SMILES = CNC(=O)c1ccc(Nc2ncc(C(F)(F)F)c(NCc3nccnc3N(C)S(C)(=O)=O)n2)cc1; host = patients with KRAS mutant NSCLC; notes = treatment-emergent, any grade; baseline = patients; quantity = patients with fatigue; result = 24%

For quick reference, copied from above:
SMILES = CCN1[C@@H](C(=O)NC23CCC(C(=O)O)(CC2)CC3)[C@H](c2cccc(Cl)c2F)[C@]2(C(=O)Nc3cc(Cl)ccc32)C12CCCCC2; host = patients with solid tumours or lymphomas; notes = grade ≥3, first-in-human trials; quantity = patients with related thrombocytopenia; result = 14%
